Published values gathered from unrelated publications.
Numbered parts are unrelated; each lists some results of a single study. Substitutions count along the parent as printed.

Study 1
Target: CEBPD, bZIP domain (human)
Technique: DHFR protein complementation
Medium: yeast
Setting: single substitutions, most at no-binding floor
Reference: wild-type JUN-FOS pair
Direction: higher = stronger binding
Measurement: binding fitness
Starting sequence: JUN, bZIP domain (human); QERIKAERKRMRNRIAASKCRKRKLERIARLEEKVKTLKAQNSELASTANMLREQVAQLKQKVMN; partner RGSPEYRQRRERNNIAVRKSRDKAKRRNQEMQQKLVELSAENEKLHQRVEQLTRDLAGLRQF
E54R: -1.34 natural log
A40H: -1.33 natural log
L52V: -1.39 natural log
R30G: -1.26 natural log
E44F: -1.38 natural log
K36N: -1.25 natural log
A57E: -1.21 natural log
A29R: -1.35 natural log
E54I: -1.39 natural log
E33T: -1.42 natural log
E32K: -1.43 natural log
Q55E: -1.41 natural log

Study 2
Target: Sal-like protein 4, full length isoform A (SALL4, Homo sapiens, UniProt Q9UJQ4, residues 1-1053)
UniProt Q9UJQ4, sequence (whole entry, looked up): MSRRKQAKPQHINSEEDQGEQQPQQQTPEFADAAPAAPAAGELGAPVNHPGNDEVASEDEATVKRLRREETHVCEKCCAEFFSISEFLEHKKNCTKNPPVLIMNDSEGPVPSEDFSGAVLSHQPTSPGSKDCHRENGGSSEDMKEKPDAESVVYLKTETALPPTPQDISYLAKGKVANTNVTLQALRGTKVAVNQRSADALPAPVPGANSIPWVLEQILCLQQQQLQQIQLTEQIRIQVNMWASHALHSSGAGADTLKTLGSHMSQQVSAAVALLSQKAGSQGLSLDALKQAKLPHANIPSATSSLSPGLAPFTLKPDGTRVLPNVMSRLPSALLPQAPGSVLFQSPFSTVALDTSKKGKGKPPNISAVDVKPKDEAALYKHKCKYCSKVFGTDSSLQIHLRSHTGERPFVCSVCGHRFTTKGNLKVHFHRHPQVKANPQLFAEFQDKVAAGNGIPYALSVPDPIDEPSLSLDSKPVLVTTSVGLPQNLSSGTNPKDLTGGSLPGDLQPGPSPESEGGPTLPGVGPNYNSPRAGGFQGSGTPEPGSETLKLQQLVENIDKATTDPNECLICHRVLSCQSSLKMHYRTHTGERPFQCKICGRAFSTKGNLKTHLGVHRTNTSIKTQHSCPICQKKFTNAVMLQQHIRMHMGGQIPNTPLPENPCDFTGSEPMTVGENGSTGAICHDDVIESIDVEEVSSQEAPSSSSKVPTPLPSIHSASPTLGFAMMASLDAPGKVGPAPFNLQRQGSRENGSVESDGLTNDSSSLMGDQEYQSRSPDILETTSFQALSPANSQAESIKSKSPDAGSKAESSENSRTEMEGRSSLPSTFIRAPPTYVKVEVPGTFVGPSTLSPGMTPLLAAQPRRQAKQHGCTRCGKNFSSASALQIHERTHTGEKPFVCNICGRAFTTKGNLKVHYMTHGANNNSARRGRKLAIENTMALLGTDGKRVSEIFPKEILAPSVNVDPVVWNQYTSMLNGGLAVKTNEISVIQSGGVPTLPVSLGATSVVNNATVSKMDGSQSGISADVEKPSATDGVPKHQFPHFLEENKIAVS
Technique: universal PBM
Form: double-stranded DNA, one strand shown
Medium: in vitro
Tested at: 600 nM
Setting: 8-mer, flanks averaged, mean of replicates
Direction: higher = stronger binding
Measurement: E-score
TGCGAGAA: -0.14
ATATACCG: 0.0886
GTCCGTTA: -0.0707
ACGTTTCG: 0.0411
AGATGTTC: 0.089
TGTGAGAA: 0.224
CCTGCGTA: -0.0989
GATCAATA: 0.378
GCCTTTGA: -0.0861
CGCTTACC: -0.0383
ACACCGCG: -0.36
AAATGCTT: 0.14
CAGAGGCG: -0.147
ATCGGGCC: -0.29
GCTGGGCA: -0.191
TTCTGAAA: 0.214
ACACGCGG: -0.182

Study 3
Target: ABI1, truncated, D143A, DHFR fusion (Arabidopsis thaliana)
Technique: DHFR PCA, deep sequencing
Medium: yeast
Setting: methotrexate growth selection, single substitutions
Together with: (+)-ABA 0.11 µM
Reference: wild-type fitted maximum
Direction: higher = stronger binding
Measurement: relative binding score
Starting sequence: PYL1, truncated, DHFR fusion (Arabidopsis thaliana); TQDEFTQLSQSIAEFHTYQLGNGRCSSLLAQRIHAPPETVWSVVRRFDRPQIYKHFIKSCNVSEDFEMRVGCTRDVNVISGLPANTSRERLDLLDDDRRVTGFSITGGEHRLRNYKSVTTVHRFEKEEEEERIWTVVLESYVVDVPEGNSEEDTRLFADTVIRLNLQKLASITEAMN
D153G: 2.62%
P146W: -5.39%
M68G: 0.591%
I162H: -1.12%
E147R: 3.91%
E67Y: 8.32%
A30Q: 7.81%
A170G: 2.5%
A13Q: 38.7%
A84G: 44.4%
Q10F: 2.38%
E125I: 31.9%
D97T: 38.5%
T1R: 32.8%
P83H: 10.9%
G148R: -0.662%
C72L: 0.96%
V145C: -4.5%
H122D: 0.0952%
V142W: -6.9%
T1H: 30.6%
E131R: 51.9%
Q10M: 15.5%

Study 4
Target: CCNB3, cyclin fold, Cln2 fusion (human)
Technique: yeast growth competition, sequencing
Medium: yeast
Setting: weak parent motif
Reference: not given
Direction: higher = stronger binding
Measurement: normalised enrichment score
Starting sequence: SGO1 docking peptide (human); PLAKRALKYTDEK
R5A: -0.149
K8A: 0.308
K4A: 0.0771
L2A: 0.165
L7A: 0.181

Study 5
Target: Interferon regulatory factor 5, full length, phosphomimetic (IRF5, Homo sapiens, UniProt Q13568-2, residues 1-514, K96S/S451D/S453D/S456D/S462D)
Technique: protein-binding microarray
Form: double-stranded DNA, one strand shown
Medium: in vitro
Tested at: 250 nM
Setting: 60-bp whole probe
Together with: salmon DNA 0.4 mg/ml
Reference: random background probes
Direction: higher = stronger binding
Measurement: log fluorescence
Constant ends, left off below: GCCTAGCAC … GTCTTGATTCGCTTGACGCTGCTG
GATGGACTGGGTCTCGGGACGTGCTAG: -0.348 z-score
GACGGTCTCGGACTGGGTACGTGCTAG: -0.507 z-score
TTAGATATCGACACTGGGTTAGTGCTA: 1.37 z-score
TCATGAATGCCCTTCCATACTGTGCTA: -0.0625 z-score
TCATATATGAATATATAACTGTGCTAG: 0.72 z-score
GGATGAAGCGCTTCTCGAGTGGTGCTA: -0.301 z-score
GACGTTATCGACTATCGGGACGTGCTA: 3.83 z-score
CGCTCCCTTTATTCCACATTGTGCTAG: 0.0116 z-score
GACTGTTTCGGTTCCGGGACGTGCTAG: 9.62 z-score
TTAGATTTGAGTTTCGATTAGTGCTAG: 9.23 z-score
TTAGGTATCGGACTGGGGTAGTGCTAG: 1.37 z-score
GACGATCTCGGTATCGGGACGTGCTAG: 0.877 z-score
CTCCATGAACAGGGCTGATGGTGCTAG: -0.336 z-score
GTTAGAATGTCCTTTCTCCATGTGCTA: 0.573 z-score
GACGGTTTCCTTTTCCTGTCGTGCTAG: 1.77 z-score
ATTTAGTATTACCTATTTCTGTGCTAG: 1.08 z-score
TCAGGACTGCTTCTCCTTTAGTGCTAG: -0.105 z-score
GACGTTCTCAGTTTCGAGACGTGCTAG: 4.65 z-score

Study 6
Target: RNA binding protein fox-1 homolog 2, RRM domain, GST-SBP tag (RBFOX2, Homo sapiens, UniProt O43251-10, residues 100-194)
Technique: RNA Bind-n-Seq
Form: RNA
Medium: in vitro
Tested at: 365 nM
Setting: natural RNA segment, single round, ends assumed
Reference: no-protein control
Direction: higher = stronger binding
Measurement: RBNS enrichment (R)
Constant ends, left off below: GGGAGUUCUACAGUCCGACGAUC … UGGAAUUCUCGGGUGCCAA
AGCAGCUGCAGCAAAAUCUAGGGGUGUAAGUGUAUCAGGACUUAUGUGACUUAUAUUUUGGGGAGAUGAGGGUUGGGUUUUUUUUUUAAUGCUACGUGACAGUUUGAAAC: 0.87
CAUGGCAAAGACAAUGCUGACACCACUCCACUGUGAGAGCAUAGUCUGGGGACACUGACUCAGCGAGUGUGUUCCAGACUGACUUCCAGGACACUGUGUGACGUCAGCAU: 0.437
UAGCCUUGGCCCGAAGACAGAAAAUUCUCUCUGCCCUGCUGUAUCAUAAAGCACACACUUAGUGCCCUGGAGCAAGUCCAUGACUCCACAUGACCUUGGAAGCUUUCUUC: 0.428
UUCAACUCACCAGACACCUUUCUUUAGUUGAAAUAAACCAGCAUGACCUGGAGAUCAUGGUGACUGUAAGCUAAGUCUGUUUUCAUGCCAGAUUUCAGCCCCACCCAGAG: 0.94
UAAAAUGAAUUGCUAUACCUUAGAAACAAUGUGACUCUAUUAAAAUAGUAUGGGGUAAGUACCCUACCUCUUAUAAAGGGCAAAAUGGAAAAGAAGUUUUCUUACAAACC: 1.73
GAGAAAGAGAGUCUGGGCUGUGACCGAGUGCAUGUGUCCCACCCAGCCGGAAGGCCAGCGCCUGGGAUGGAGCCAGCAGAACCCCAUGCCGAGGUCCAGGAGGCCUUGCC: 5.38
UAUAGAUCGUCCCCCUGGAAACUGAGGCAUGAGCUCUUCCUCAGAAGUCUGUGAGGGUGAAUGCUAAAGGCUGGGAAGGGAGUGGGCUAGCCAGCUCAUGGAACGUAGGC: 1.3
AAAGUAAGGAGGGUGGCCAAAUGGUAAACUAUUGGUACUUGUUUUCUACCUCCUAAAAAUGUAGCUUAUUUUUAGGAUUUAAAUCACUAAGUAAAUAAGUAUCCUUGCCA: 0.491
CUUAACCAGCAGGGCAAAUUCCACUUGCAGACAUCCUUUACUCUGUGGUCCCUUGUUAGUACCGAAGUGCAAAAAAGAAAUGCAGUUCUGUGUUUGGAACAAGAAGCAUC: 0.446
GCACAAGUUCAGAAGACACAGAGGGUGUCUUCUCACACACCACACUGUGACGAGGAACUGCCAUUGCAGGGUCAAUCACCAGGCACUUGCACAUGUAGAAACCUGUAGAC: 0.524
GUCUUGGCCCUGGGCCAUAUGAGGGGCCAGGAAAUGAACGACAAGGAGGAUAAGAGUGUUCUUUCUUGAAAGCCGGGACUUCCCCUCAAGAACCUGGGCCUGGGGCCGGG: 1.07
UCAGCUAGAUAUGAGCUAUGCAAGGAGCCAUAGGAAUAGCUAUAUGUUGGAAUGGCUUUAAUGUUGUUACAUUUGAGGGGGGAUGGAAAAUAAAGUGAUUAUAUAACUCU: 7.01
